Results pooled from the literature.
Compare with care: the assays were run in different laboratories. Numbers after ± are the reported error.

SMILES	test	test system	setting	how to read	measurement	result
C=CC(=O)Nc1cc(Nc2nccc(-c3cn(C)c4ccccc34)n2)c(OC)cc1N(C)CCN(C)C	storage stability	human plasma	24 h, on ice, medium QC level		recovery	87.4%
CCO[C@H]1CCN(Cc2c(OC)cc(C)c3[nH]ccc23)[C@H](c2ccc(C(=O)O)cc2)C1		PNH patients, active haemolysis	oral, 100 mg, 8 weeks, treatment		incidence upper respiratory infection	28.6%
Cc1ccc([C@@H]2O[C@H](CO)[C@@H](O)[C@H](O)[C@H]2O)cc1Cc1ccc(-c2ccc(F)cc2)s1	measured: inorganic phosphorus	Japanese type 2 diabetes patients	100 mg, day 6, 24 h urine collection	relative to: baseline	urinary phosphate excretion change	18.6 mg
COc1nnc2ccc(N3CCC(c4ccc(OCCN5CCN(C)C(=O)[C@H]5C)cc4)CC3)nn12		patients, plasma	oral, 15 mg twice daily, multiple dose, monotherapy		AUC(0-t)	0.317 µM·h
CCCCCN1C[C@H](O)[C@@H](O)[C@H](O)[C@@H]1CO	LC-MS/MS	mouse Hexb-/- total, plasma	30 mg/kg/day, arithmetic mean		plasma concentration	284 ng/mL
CNC(=O)c1cc(Oc2ccc(NC(=O)Nc3cc(C(C)(C)C)nn3-c3ccc4ncccc4c3)c(F)c2)ccn1	measured: worst grade 3	human	oral, dose not given, cycles 1 and 2, Medium AUC(0-4 h) subgroup		patients with any AE of special interest	29%
Cc1nc(-c2ccc(OCC(C)C)c(C#N)c2)sc1C(=O)O		healthy Chinese subjects, fasted	oral, 40 mg single dose		subjects with hypertriglyceridaemia	2.6%
Cc1nc2cccc(OCC(C)(C)C(=O)NC(C)C)c2c(N)c1C(=O)O		male Swiss albino CD-1 mouse, bone marrow	oral, 1000 mg/kg, 24 h		PCE/NCE ratio	0.79
COc1ccnc(C(=O)NC(CO)C(=O)O)c1O (racemic)		Staffordshire loam sediment, aerobic dark	20 °C		DT50 whole system	38.3 days
N#Cc1ccc2c(c1)[C@H]1CCCN(C(=O)c3ccc4[nH]cnc4c3)[C@H]1C2		human	20 mg, day 7		minimum ACTH level	4.2 pmol/L
Cn1cc([C@H]2C[C@H]3CSC(N)=N[C@@]3(c3ccc(F)cc3F)CO2)cn1		male 129/SVE mouse, CSF	subcutaneous, 50 mg/kg, 3 h		CSF concentration	1210 nM
Cc1cc(-c2nccc3c2ccn3CC(=O)Nc2ccc(-c3cnccn3)cn2)ccn1		healthy human volunteers	oral, 7 mg single dose, single ascending dose		device site dermatitis incidence	0%
CN(CC#N)C(=O)C[C@H](Nc1nc2ccccc2[nH]1)c1cccc(C(F)(F)F)c1		human	intravenous infusion, 2 mg/kg, 10 mg/mL formulation		apparent volume of distribution	81.9 ± 34.1 L
COc1cccc(OC)c1-c1cc(C(=O)NC2(C(=O)O)C3CC4CC(C3)CC2C4)nn1-c1ccc(C(=O)N(C)CCCN(C)CCCN(C)C(=O)CN2CCN(CC(=O)[O-])CCN(CC(=O)[O-])CCN(CC(=O)[O-])CC2)cc1C(C)C.[177Lu+3] (centres unmarked)		mouse, HT-29 xenograft	4 h post injection, biodistribution	relative to: tumour over heart uptake	tumour-to-heart ratio	6.7
CCc1c(-c2ccccc2)c(-c2ccccc2)nn1-c1ccccc1-c1cccc(OCC(=O)O)c1		female Sprague-Dawley rat, ovary	oral, 10 mg/kg, 4 h		concentration	1790 ng/g
COc1ccc2c(c1)CN(C(=O)CCN1CCC(Cc3ccccc3)CC1)CC[S@@+]2[O-]	telemetry	conscious dog	intravenous, 4 mg/kg, 2 h		diastolic blood pressure	74 ± 6 mmHg
O=C(Nc1nc2cccc(-c3ccc(CN4CCS(=O)(=O)CC4)cc3)n2n1)C1CC1	measured: first degree atrioventricular block	human rheumatoid arthritis patients	oral, 200 mg once daily, 4 weeks, regardless of relatedness		treatment-emergent adverse events	0%
O=C1c2ccncc2C(=O)c2c1[nH]c1ccccc21		Sprague-Dawley rat male, plasma	intravenous, 5 mg/kg		volume of distribution	20.3 ± 6 L
CNCCOC12CC3(C)CC(C)(CC(Cn4ncc(-c5ccc(N6CCc7cccc(C(=O)Nc8nc9ccccc9s8)c7C6)nc5C(=O)O)c4C)(C3)C1)C2		anaesthetised male beagle dogs	intravenous bolus, 0.03 mg/kg, 90 min	relative to: baseline	cardiac output change	-29%
CNC(=O)c1ccc(-c2cnc3ncc(Cc4ccc5ncccc5c4)n3n2)cc1F		healthy human subjects	oral, 200 mg, Insomnia, grade 3, all causality, with: itraconazole 200 mg/day		subjects with adverse event	0%
NC1(C(=O)N[C@@H](CCO)c2ccc(Cl)cc2)CCN(c2nc[nH]c3nccc2-3)CC1		metastatic CRPC patients	480 mg b.i.d., any grade, treatment-related, with: enzalutamide 160 mg daily		incidence of Hyper-glycaemia	60%
C[C@@H](N)C1CCN(S(=O)(=O)c2cccc3cnccc23)CC1		healthy volunteers, plasma	oral, 150 mg, fed, single dose		AUC(0-t)	42 ng·h/mL
CC(C)NCCCC[C@@H]1NC(=O)[C@H](Cc2ccc(O)cc2)NC(=O)[C@H](Cc2ccccc2)NC(=O)CC[C@H](C(=O)N[C@@H](CCCCNC(C)C)C(=O)N[C@@H](CCCCNC(=O)[C@H](CCC(=O)O)NC(=O)[C@H](CCC(=O)O)NC(=O)[C@H](CCC(=O)O)NC(=O)CN2CCN(CC(=O)O)CCN(CC(=O)O)CCN(CC(=O)O)CC2)C(N)=O)NC(=O)CNC(=O)[C@H](Cc2ccc3ccccc3c2)NC(=O)[C@@H](CCCNC(=N)N)NC1=O [gallium-68 labelled]		mouse with JeKo-1 xenograft, spleen	intravenous, 1 h		tissue uptake	0.59 %ID/g
CN(C(=O)n1cnc(-c2cccnc2)c1)C1CCCCC1		Wistar rat, pons	oral, 10 mg/kg/day of BIA 10-2474, 24 h, repeated 5 days		concentration	7.8 ± 0.2 ng/g
COc1cc([C@H]2OC[C@H]3[C@@H]2CO[C@@H]3c2ccc(O[C@@H]3O[C@H](CO)[C@@H](O)[C@H](O)[C@H]3O)c(OC)c2)ccc1O[C@@H]1O[C@H](CO)[C@@H](O)[C@H](O)[C@H]1O	post-procedure stability	rat plasma	200 ng/mL, 1 h, room temperature		accuracy	102%
CC(C)C[C@H](NC(=O)[C@H](CCc1ccccc1)NC(=O)CN1CCOCC1)C(=O)N[C@@H](Cc1ccccc1)C(=O)N[C@@H](CC(C)C)C(=O)[C@@]1(C)CO1	population PK, two-compartment model	adult relapsed/refractory DLBCL patients, plasma	intravenous infusion, dose not given, with: R-ICE		central volume of distribution	9.37 L
CC(C)[C@H](C(=O)Nc1ccc(C(=O)NO)cc1)c1ccccc1		whole blood	1000 ng/mL, 0 h, 4 °C, stability on ice		accuracy	100%

SMILES	test	test system	setting	how to read	measurement	result
CN1C(=O)[C@@H](NC(=O)c2nnc(Cc3ccccc3)[nH]2)COc2cccnc21		human, plasma	oral, 50 mg once daily, day 1, geometric mean		Cmax	1090 ng/mL
C[C@@H]1CCO[C@H]2Cn3cc(C(=O)NCc4ccc(F)cc4F)c(=O)c(O)c3C(=O)N12	population PK, post-hoc	children aged 0.17 to 2 years, 6 to <10 kg, plasma	oral, 10 mg dispersible tablet, steady state, geometric mean		AUC(0-24)	52100 ng·h/mL
C[C@@H](Nc1cc(F)cc(F)c1)c1cc(C(=O)N(C)C)cc2c(=O)cc(N3CCOCC3)oc12	measured: Pain	advanced solid tumour patients	oral, dose not given, dose expansion		related serious adverse events	0%
CNC(=O)c1ccc(-c2cnc3ncc(Cc4ccc5ncccc5c4)n3n2)cc1F		cancer patients	oral, dose not given, all grades dose escalation		abdominal pain incidence	18%
C[C@H]1CN(C(=O)CC#N)[C@]12CCN(c1ncnc3[nH]ccc13)C2		healthy human	oral, 1.5 mg, single dose		subjects with Nausea	0%
C[C@H]1Oc2cc(cnc2N)-c2c(nn(C)c2C#N)CN(C)C(=O)c2ccc(F)cc21		Balb/c nude mouse female, plasma	5 mg/kg single dose, 12 h		free plasma concentration	57.8 nM
O=C(O)c1cccc(C(=O)O)c1		betaine/ethylene glycol DES-water	DES mass fraction 0.80		apparent dissolution enthalpy	5.84 kcal/mol
COc1ccc2[nH]c([S@+]([O-])Cc3ncc(C)c(OC)c3C)nc2c1		human male, dried plasma spots	dose not given, mean of (R)- and (S)-enantiomers, with: fluvoxamine and voriconazole	relative to: inhibition over control	AUC fold change	8.1
OCC1=C[C@@H](O)[C@@H]2C=CO[C@@H](O[C@@H]3O[C@H](CO)[C@@H](O)[C@H](O)[C@H]3O)[C@H]12		rat plasma	8 ng/mL, 2 weeks, -70 °C, post-preparative stability		accuracy	85.5%
COc1ccc2c(=O)n(C)c(-c3ccccc3)nc2c1		male Sprague-Dawley rat, bladder	oral, 30 mg/kg, 4 h		tissue concentration	272 ng/g
O=C(COc1ccc(Cl)cc1)NC12CC(c3nnc([C@H]4C[C@@H](OC(F)(F)F)C4)o3)(C1)C2		healthy human volunteers fasted, plasma	oral, 400 mg single dose, geometric mean		Cmax	4250 nM
CCc1cc(C(=O)NC)c2nccc(N3CCc4c(cc(Cn5ccnc5)cc4-c4cn(C)nc4C(F)(F)F)C3=O)c2c1	measured: DBIL	Sprague Dawley rat	oral, 50 mg/kg once daily, 7 days	relative to: vehicle	change in clinical chemistry or haematology parameter	0%
COc1cc2c3c(n(CCCN4CCOCC4)c(=O)c2cc1OC)-c1cc2c(cc1C3=O)OCO2		Fischer 344 rats, female	intravenous bolus, 24 mg/m^2		volume of distribution	194 L/m²
CC(C)(C(=O)N1CCOc2c(C#N)cncc2C1)C(F)F		human, both sexes	oral, 10 mg single dose		subjects with investigations TEAE	0%
N[C@@H](CC(=O)N1CCn2c(nnc2C(F)(F)F)C1)Cc1cc(F)c(F)cc1F		male human, plasma	oral, 100 mg single dose		AUC(0-2)	474 ± 198 ng·h/mL
Cc1cc(C)c(CNC(=O)c2cc(Cl)c3c(c2C)O[C@@](C)([C@H]2CC[C@H](N(C)C)CC2)O3)c(=O)[nH]1		human male, urine and feces	oral, 200 mg, 96 h	relative to: dose	radioactivity recovery	86.7%
Cc1c(O)c(=O)ccn1C(C)C.Cl	shake-flask, measured: iron(III) complex	1-octanol/Tris buffer	pH 7.4, ligand:iron 10:1		partition coefficient	0.5 ± 0.06
CN[C@@H]1COc2c(S(=O)(=O)NC(=O)Nc3c4c(cc5c3CCC5)CCC4)cnn2C1		human, urine	oral, 300 mg twice daily, 0-12 h, day 7		amount excreted in urine	44.5 mg
N=C(N)NCCNC(=O)C1(Nc2ccccc2)CCN(Cc2ccccc2)CC1		female Sprague-Dawley rats, plasma	oral, 50 mg/kg		apparent volume of distribution	0.3 L
Cc1cccc(CNC(=O)c2cn(CCNC(=O)c3ccccc3Sc3c([N+](=O)[O-])ncn3C)c3cc4c(cc3c2=O)OCO4)n1	LC-MS/MS	CD-1 mouse, whole blood	1 µM, 2 h		remaining compound	75.1%
Cc1c(-c2ccc(N3CCc4cccc(C(=O)Nc5nc6ccccc6s5)c4C3)nc2C(=O)O)cnn1CC12CC3(C)CC(C)(C1)CC(OCCNCC[C@H](O)CO)(C3)C2		beagle dog, male, anaesthetised	intravenous infusion, 0.3 mg/kg/min, 105 min	relative to: vehicle	dP/dt at 50 change	-33%
O=C(O)CCCOc1ccc([18F])cc1-c1cc(-c2ccccc2C(F)(F)F)n(-c2ccccc2)n1	dynamic PET	healthy male C57BL/6J mice, myocardium	intravenous, isoflurane anaesthesia		SUVmax	6 ± 0.3
Cc1ccc(C(=O)N(CCCN)C(c2nc3snc(C)c3c(=O)n2Cc2ccccc2)C(C)C)cc1 (centres unmarked)	stomatitis grade ≥3 (CTCAE)	human patients	intravenous, 13 mg/day		patients with adverse event	0%
c1ccc2c(c1)ccc1c3ccccc3ccc21		polyethylene-water partitioning	PAH compilation	relative to: maximum over minimum K	literature range factor	3
O=C(O)CCC(=O)O.[2H]C([2H])([2H])Oc1cc(C)c2[nH]ccc2c1CN1CC[C@@H](C2CC2)C[C@H]1c1ccc(C(=O)O)cc1		healthy Chinese subjects	oral, 50 mg, single ascending dose		subjects with elevated uric acid	0%
Cc1ccc(Sc2ccccc2N2CCNCC2)c(C)c1	measured: ureteric calculus	healthy adult women	oral, 10 mg daily, 12 days		participants with TEAE	0%
